{"data": "Published values gathered from unrelated publications", "note": "Lines come from different studies, so protocols differ. ± gives the spread as reported."}
{"Molecule": "CCCC[C@H]1C(=O)O[C@H](C)[C@H](NC(=O)c2cccc(NC=O)c2O)C(=O)O[C@@H](C)[C@@H]1OC(=O)CC(C)C", "target or system": "Wickerhamomyces anomalus", "test": "O2 uptake, inhibitor", "test system": "mitochondria", "setting": "together with: succinate 15 mM", "endpoint": "IC50", "result": "0.02 µM"}
{"Molecule": "Cc1cc(C(C#N)c2ccc(Cl)cc2)c(Cl)cc1NC(=O)c1cc(I)cc(I)c1O (centres unmarked)", "target or system": "dengue virus type 2 New Guinea C", "test": "viral yield", "setting": "single-cycle yield reduction", "endpoint": "IC90", "result": "0.8 ± 0.3 µM"}
{"Molecule": "N=C(N)c1ccc(-c2ccc(-c3cccs3)o2)cc1F", "target or system": "Salmonella enterica", "test system": "TA1535", "setting": "10 µM, 48 h, together with: sodium azide co-exposure", "scale": "relative to: sodium azide alone", "endpoint": "mutant frequency", "result": "29%"}
{"Molecule": "CN(C)c1ccc(/C=C/C=NN2C(S)=NCN2/C=C/c2ccccc2)cc1", "target or system": "Aedes aegypti", "setting": "third instar larvae", "endpoint": "LC50", "result": "170 µg/mL"}
{"Molecule": "N#Cc1ccc(-c2ccc(-c3ccco3)o2)cc1F", "target or system": "Salmonella enterica", "test system": "TA1535", "setting": "10 µM, 48 h, together with: sodium azide after pre-exposure", "scale": "relative to: sodium azide alone", "endpoint": "mutant frequency", "result": "48%"}
{"Molecule": "CCCCCCCCCCCC(=O)N/N=C/c1ccccc1", "target or system": "Aspergillus niger", "test": "microbial growth, broth dilution", "setting": "7 days", "endpoint": "MIC", "result": "61.7 µM"}
{"Molecule": "CN[C@@](C)(C[18F])C(=O)O", "test system": "mouse, pancreas", "setting": "2 h, tumour-bearing", "endpoint": "tracer uptake", "result": "16 %ID/g"}
{"Molecule": "N#Cc1ccc(-c2ccc(-c3cccs3)o2)c(F)c1", "target or system": "Salmonella enterica", "test system": "TA1535", "setting": "20 µM, 48 h, together with: sodium azide co-exposure", "scale": "relative to: sodium azide alone", "endpoint": "mutant frequency", "result": "29%"}
{"Molecule": "O=C(O)C(=O)CBr", "target or system": "Leishmania infantum", "test system": "U-937 macrophages, infected", "setting": "273 µM, 48 h, highest non-cytotoxic concentration", "endpoint": "decrease of intracellular amastigotes", "result": "18.6%"}
{"Molecule": "C=CC1=C(C)/C(=C/C2=NC(=C\\c3[nH]c(/C=C4\\NC(=O)C(C)=C4C=C)c(C)c3CCC(=O)O)/C(CCC(=O)O)=C2C)NC1=O", "target or system": "hepatitis C virus", "test": "viral replication, RT-PCR", "test system": "Huh7.5 full-length Con1 replicon", "setting": "48 h", "endpoint": "lowest effective concentration", "result": "20 µM"}
{"Molecule": "CN1CCN(CCCN2c3ccccc3Sc3ccc(C(F)(F)F)cc32)CC1", "target or system": "coronavirus spike pseudovirus", "test": "luciferase reporter", "test system": "ACE2-high cells", "setting": "20 µM, unit not given", "scale": "relative to: untreated", "endpoint": "pseudovirus entry", "result": "0.31 ± 0.06"}
{"Molecule": "N=C(N)c1ccc(-c2ccc(-c3ccco3)o2)c(F)c1", "target or system": "Salmonella enterica", "test": "sodium azide mutagenicity", "test system": "TA1535", "setting": "10 µM, 48 h, together with: sodium azide 2 µg/plate co-exposure", "endpoint": "inhibition", "result": "59%"}
{"Molecule": "N#Cc1c(-c2ccc3c(c2)OCO3)[nH]c2nc(N)[nH]c(=O)c12", "target or system": "Trypanosoma brucei brucei", "test": "Alamar blue", "test system": "Lister 427 bloodstream form", "setting": "concentration not given, 10% fetal calf serum", "endpoint": "ED50", "result": "123 ± 3.3 µM"}
{"Molecule": "O=Cc1cn(Cc2ccccc2)c2ccc([N+](=O)[O-])cc12", "target or system": "Trypanosoma equiperdum", "test system": "trypomastigotes, IVM-t1", "endpoint": "IC50", "result": "> 89 µM"}
{"Molecule": "c1ccc(CN2CCN3CCCN(CC2)CCN(Cc2ccccc2)CC3)cc1", "target or system": "Leishmania donovani", "test": "parasite growth, resazurin", "setting": "72 h, promastigote", "endpoint": "IC90", "result": "> 20 µM"}
{"Molecule": "TFFRLFNRGRRRRSVQWCA", "target or system": "Streptococcus mutans", "test": "OD600", "test system": "peptide, UA159, 4 h single-species biofilm", "setting": "128 µg/ml, 5 min exposure, OD600 read over 5 h", "endpoint": "biofilm growth", "result": "decreased"}
{"Molecule": "CP(=O)(O)CCC(N)C(=O)O (centres unmarked)", "target or system": "Echinochloa crus-galli", "setting": "500 g/ha, 13 days, post-emergence spray", "scale": "relative to: untreated (0%), complete kill (100%)", "endpoint": "herbicidal activity", "result": "100%"}
{"Molecule": "C[C@H](Cn1cnc2c(N)ncnc21)OCP(=O)(O)O", "target or system": "human alphaherpesvirus 2", "test": "virus production, plaque reduction", "test system": "human monocytes/macrophages", "setting": "1 µg/mL, 6 days", "endpoint": "inhibition", "result": "27%"}
{"Molecule": "C=CC1=C(C)/C(=C/c2[nH]c(Cc3[nH]c(/C=C4\\NC(=O)C(C)=C4C=C)c(C)c3CCC(=O)O)c(CCC(=O)O)c2C)NC1=O", "target or system": "hepatitis C virus", "test": "viral replication, RT-PCR", "test system": "Huh7.5 full-length Con1 replicon", "setting": "48 h", "endpoint": "lowest effective concentration", "result": "200 µM"}
{"Molecule": "C=C1[C@H](CO)[C@@H](O)C[C@@H]1n1cnc2c(=O)[nH]c(N)nc21", "target or system": "hepatitis B virus", "test": "native agarose gel", "test system": "AML12HBV10", "setting": "1 µM, 2 days", "endpoint": "capsid assembly", "result": "no effect"}
{"Molecule": "N#Cc1ccc(-c2ccc(-c3ccco3)o2)c(F)c1", "target or system": "Salmonella enterica", "test system": "TA1535", "setting": "20 µM, 48 h, together with: sodium azide co-exposure", "scale": "relative to: sodium azide alone", "endpoint": "mutant frequency", "result": "26%"}
{"Molecule": "Nc1ccn([C@@H]2CS[C@H](CO)O2)c(=O)n1", "target or system": "hepatitis B virus", "test": "viral replication", "test system": "HepG2.2.15", "endpoint": "EC90", "result": "0.14 ± 0.011 µM"}
{"Molecule": "C[C@@H]1[C@H](O)[C@@H](C)/C=C/C=C/C=C/C=C/C=C/C=C/C=C/[C@H](O[C@@H]2O[C@H](C)[C@@H](O)[C@H](N)[C@@H]2O)C[C@@H]2O[C@](O)(C[C@@H](O)C[C@@H](O)[C@H](O)CC[C@@H](O)C[C@@H](O)CC(=O)O[C@H]1C)C[C@H](O)[C@H]2C(=O)O", "target or system": "Leishmania amazonensis", "test system": "intracellular amastigotes", "setting": "72 h, washout", "endpoint": "LD50", "result": "82 ± 7.1 nM"}
{"Molecule": "tannic acid", "target or system": "viral haemorrhagic septicaemia virus", "test system": "zebrafish", "setting": "in feed, 200 µg/fish/day, feed 10% for 10 days", "endpoint": "cumulative mortality", "result": "39.2 ± 1%"}
{"Molecule": "O=Cc1cn(Cc2ccc(F)cc2)c2ccc([N+](=O)[O-])cc12", "target or system": "Leishmania major", "test": "parasite growth, resazurin", "setting": "promastigote", "endpoint": "IC50", "result": "97.2 µM"}
{"Molecule": "CCCCCCCCCCCC(=O)N/N=C/c1ccccc1Cl", "target or system": "Aspergillus niger", "test": "microbial growth, broth dilution", "setting": "7 days", "endpoint": "MIC", "result": "37.2 µM"}
{"Molecule": "SC1=NCN(/C=C/c2ccccc2)N1N=Cc1ccc(Br)cc1", "target or system": "Aedes aegypti", "setting": "third instar larvae", "endpoint": "LC50", "result": "140 µg/mL"}
{"Molecule": "zinc borate", "target or system": "Serratia marcescens", "test": "broth macrodilution", "test system": "clinical isolate", "setting": "9%, together with: boric acid", "endpoint": "MBC", "result": "> 9%"}
{"Molecule": "O=c1cc(-c2ccc3c(c2)OCO3)[nH]c2ccccc12", "target or system": "human rhinovirus 2", "test": "cytopathic effect", "test system": "HeLa", "setting": "concentration not given, 72 h, non-cytotoxic concentrations", "endpoint": "antiviral activity", "result": "inactive"}
{"Molecule": "O=C1CCc2ccc(OCCCCN3CCN(c4cccc(Cl)c4Cl)CC3)cc2N1", "target or system": "coronavirus spike pseudovirus", "test": "luciferase reporter", "test system": "ACE2-high cells", "setting": "20 µM, unit not given", "scale": "relative to: untreated", "endpoint": "pseudovirus entry", "result": "0.18 ± 0.01"}
{"Molecule": "LSTFFRLFNRSFTQGRRRRSVQWCA", "target or system": "Streptococcus mutans", "test": "OD600", "test system": "peptide, UA159, 4 h single-species biofilm", "setting": "128 µg/ml, 5 min exposure, OD600 read over 5 h", "endpoint": "biofilm growth", "result": "decreased"}
{"Molecule": "Cc1cc(CCCOc2c(C)cc(-c3noc(C(F)(F)F)n3)cc2C)on1", "target or system": "Enterovirus D68", "test system": "RD, US/KY/14-18953", "setting": "72 h", "endpoint": "EC90", "result": "0.21 ± 0.05 µM"}
{"Molecule": "C[C@H]1N[C@@H](CCCCCCCCCCC2=C[C@@H](CCCCCCCCCC[C@H]3CC[C@@H](O)[C@@H](C)N3)[C@@H]3CCCN3C2)CC[C@H]1O", "target or system": "Leishmania donovani", "test": "parasite growth", "test system": "THP-1", "setting": "intracellular, amastigote", "endpoint": "IC90", "result": "1.34 µg/mL"}
{"Molecule": "N#Cc1ccc(-c2ccc(-c3cccs3)s2)cc1F", "target or system": "Salmonella enterica", "test": "sodium azide mutagenicity", "test system": "TA1535", "setting": "20 µM, 48 h, together with: sodium azide 2 µg/plate after pre-exposure", "endpoint": "inhibition", "result": "107%"}
{"Molecule": "Nc1nc(N)c2nc(-c3ccccc3)c(N)nc2n1", "target or system": "human respiratory syncytial virus", "test system": "BEAS-2B, A2-L19F-renilla", "setting": "concentration not given", "endpoint": "antiviral activity", "result": "inactive"}
{"Molecule": "Cl.N=C(N)NCCNS(=O)(=O)c1cccc2cnccc12", "target or system": "Chlamydomonas reinhardtii", "test": "dynein-driven sliding", "test system": "pf14, isolated axonemes", "setting": "15 µM, 15 min, together with: 1 mM ATP", "endpoint": "microtubule sliding velocity", "result": "increased"}
{"Molecule": "c1ccc(CN2CCCNCCN(Cc3ccccc3)CCCNCC2)cc1", "target or system": "Leishmania donovani", "test": "parasite growth, resazurin", "setting": "72 h, amastigote", "endpoint": "IC90", "result": "> 25 µM"}
{"Molecule": "Cc1ccc(Cn2cc(C=O)c3cc([N+](=O)[O-])ccc32)cc1", "target or system": "Trypanosoma brucei rhodesiense", "test system": "trypomastigotes, IL1501", "endpoint": "IC50", "result": "> 85 µM"}
{"Molecule": "CN1CCN2CCN(CC1)CCN(Cc1ccccc1)CC2", "target or system": "Leishmania donovani", "test": "parasite growth, resazurin", "setting": "72 h, amastigote", "endpoint": "IC90", "result": "> 20 µM"}
{"Molecule": "COC(=O)CNC(=O)/C=C\\C/C=C\\NC(=O)/C=C(C)/C=C/[C@H](C)[C@H](OC)[C@H](C)[C@H](/C=C/c1ccccc1)OC", "target or system": "Zymoseptoria tritici", "test": "disease control, glasshouse foliar spray", "test system": "Triticum aestivum", "setting": "disease control 100%", "endpoint": "lowest effective concentration", "result": "> 180 µM"}
{"Molecule": "N=C(N)c1ccc(-c2ccc(-c3cccs3)o2)c(F)c1", "target or system": "Salmonella enterica", "test system": "TA1535", "setting": "20 µM, 48 h, together with: sodium azide co-exposure", "scale": "relative to: sodium azide alone", "endpoint": "mutant frequency", "result": "18%"}
{"note": "Excerpt of the above:"}
{"Molecule": "N=C(N)c1ccc(-c2ccc(-c3cccs3)o2)cc1F", "target or system": "Salmonella enterica", "test system": "TA1535", "setting": "10 µM, 48 h, together with: sodium azide co-exposure", "scale": "relative to: sodium azide alone", "endpoint": "mutant frequency", "result": "29%"}
{"Molecule": "C[C@H](Cn1cnc2c(N)ncnc21)OCP(=O)(O)O", "target or system": "human alphaherpesvirus 2", "test": "virus production, plaque reduction", "test system": "human monocytes/macrophages", "setting": "1 µg/mL, 6 days", "endpoint": "inhibition", "result": "27%"}
{"Molecule": "CCCC[C@H]1C(=O)O[C@H](C)[C@H](NC(=O)c2cccc(NC=O)c2O)C(=O)O[C@@H](C)[C@@H]1OC(=O)CC(C)C", "target or system": "Wickerhamomyces anomalus", "test": "O2 uptake, inhibitor", "test system": "mitochondria", "setting": "together with: succinate 15 mM", "endpoint": "IC50", "result": "0.02 µM"}
